Results collected from several papers.
Compare with care: the assays were run in different laboratories. Several values in a cell are separate wells, animals, samples, runs or records. Numbers after ± are the reported error.
ZBTB11/CRBN: ZBTB11/CRBN (Homo sapiens, UniProt O95625+Q96SW2)

Compound	target	assay	system	conditions	how to read	endpoint	value
Nc1nc2c(ncn2[C@@H]2O[C@H](COP(=O)(O)O)[C@@H](O)[C@H]2O)c(=O)[nH]1	GUK1 (Homo sapiens, UniProt Q16774)	substrate, NADH-coupled	–	NaCl 10 mM, with: ATP 2.5 mM	–	Km	45.5 µM
COc1cc(/C=C/c2ccc(O)cc2)cc(OC)c1	O-methyltransferase (Sorghum bicolor, UniProt A0A1B6PFV1)	ITC	–	concentration not given, with: SAM+	–	binding stoichiometry	0.91
COc1cc(F)ccc1-c1ncnc(Nc2cccc(C[S@](C)(=N)=O)c2)n1	G protein-coupled receptor kinase 5 (GRK5, Homo sapiens, UniProt P34947)	kinase activity	–	10 µM, with: 10 µM ATP	–	remaining activity	114%
COc1cc(Nc2ncc3c(n2)-c2ccc(Cl)cc2C(c2c(F)cccc2OC)=NC3)ccc1C(=O)O	YES1	kinase activity	–	1 µM	–	remaining activity	11%
[H]/N=C(/N)NCC(=O)O	Sodium- and chloride-dependent taurine transporter (SLC6A6, Homo sapiens, UniProt P31641, L306A)	binding, microscale thermophoresis	–	3.91 µM, room temperature, with: 50 nM labelled protein	higher = more binding	normalised MST signal	0.000278
O=C(COP(=O)(O)O)[C@@H](O)[C@H](O)[C@H](O)COP(=O)(O)O	Beta-actin-like protein 2 (ACTBL2, Homo sapiens, UniProt Q562R1)	thermal proteome profiling, item: ACTBL2	HepG2 cell lysate	concentration not given, 57 over 37 °C, mean	baseline: compound over control	thermal stability ratio	0.698
O=c1nc(SCc2cc(F)cc(C(F)(F)F)c2)nc(SCc2csc3ccc(Cl)cc23)[nH]1	DNA topoisomerase 2-alpha (TOP2A, Homo sapiens, UniProt P11388)	DNA cleavage	–	31.25 µM, replicate 2	–	linear DNA	4.03%
CN1CCN(c2cc(-c3ccncc3)c(-c3ccc4ccccc4c3)nn2)CC1	C-C chemokine receptor type 8 (CCR8, Homo sapiens, UniProt P51685)	agonist, FLIPR	–	12.5 µM	–	activation	-4.2%
COc1ccc(CCC(C)N2CCc3cc(OC)c(OC)cc3C2)cc1 (centres unmarked)	Sigma intracellular receptor 2 (Tmem97, Rattus norvegicus, UniProt Q5U3Y7)	binding	–	–	baseline: Ki sigma-1 over Ki sigma-2	selectivity ratio	82
Nc1ncnc2c1ncn2[C@@H]1O[C@H](COP(=O)(O)CP(=O)(O)OP(=O)(O)O)[C@@H](O)[C@H]1O	P2X purinoceptor 1 (P2RX1, Homo sapiens, UniProt P51575, S286A)	saturation binding	HEK293	1 nM	–	specific binding	268 CCPM and 142 CCPM and 148 CCPM
c1ccc(C(NCc2cccnc2)(c2ccccc2)c2ccccc2)cc1	Potassium voltage-gated channel subfamily KQT member 1 (KCNQ1, Homo sapiens, UniProt P51787)	ion current, inhibitor, whole-cell patch clamp	tsA201	peak current, leak-subtracted	–	Hill coefficient	0.7
O=[N+]([O-])c1cc(C(F)(F)F)ccc1NCc1ccco1	Endothelial PAS domain-containing protein 1, PAS-B domain (EPAS1, Homo sapiens, UniProt Q99814, N288Q)	binding, ITC, reverse mode	–	–	–	ΔH	-8.75 ± 0.18 kcal/mol
CCOc1ccc(NC(=O)OC(Cn2nc(C(C)C)cc2C(C)C)C(C)C)cc1 (centres unmarked)	Neuronal acetylcholine receptor; alpha4/beta2, (α4)2(β2)3 stoichiometry (Homo sapiens, UniProt P17787+P43681)	ACh-evoked current, two-electrode voltage clamp	–	1 µM, high-sensitivity stoichiometry, with: ACh 10 µM	baseline: ACh alone	current	479 ± 25%
[2H]c1cc(C)c(NC(=O)c2cnc(Nc3cc(N4CCCCC4)nc(C)n3)s2)c(Cl)c1	Mast/stem cell growth factor receptor Kit (KIT, Homo sapiens, UniProt P10721)	–	–	0.01 µM	–	inhibition	30 to 90%
NCCCC[C@H](N)C(=O)Nc1ccc2ccccc2c1	rat neuron-specific aminopeptidase	substrate	–	MW 110 kDa	–	kcat	30.8 s⁻¹
C=CC(=O)N1CCC(COCC(=O)N2CCN(c3nc(-c4cnc(N)nc4C(F)F)nc(N4CCOC[C@@H]4C)n3)CC2)CC1	Mast/stem cell growth factor receptor Kit (KIT, Homo sapiens, UniProt P10721, T670I/V559D)	KINOMEscan	–	1 µM	–	remaining binding	95%

Compound	target	assay	system	conditions	how to read	endpoint	value
CC(=O)N[C@H](C(=O)N1C[C@H](O)C[C@H]1C(=O)NCc1ccc(-c2scnc2C)cc1)C(C)(C)SCCCCCCNC(=O)C[C@@H]1N=C(c2ccc(Cl)cc2)c2c(sc(C)c2C)-n2c(C)nnc21	Bromodomain-containing protein 3, BD1 (BRD3, Homo sapiens, UniProt Q15059)	ITC	–	concentration not given, 25 °C, compound in cell, protein in syringe	–	binding stoichiometry	0.68 ± 0.02
Cc1c(Cl)c(=O)oc2cc(OCCCCSC#N)ccc12	Carbonic anhydrase 12 (CA12, Homo sapiens, UniProt O43570)	stopped-flow CO2 hydration	–	–	baseline: Ki CA I over Ki CA XII	selectivity ratio	> 1690
Nc1nc2c(ncn2[C@H]2C[C@H](O)[C@@H](CO)O2)c(=O)[nH]1	deoxyribonucleoside phosphotransferase I (Trichomonas vaginalis)	substrate	–	with: p-nitrophenylphosphate 100 mM	–	Km	2250 ± 220 µM
O=C1CCC(N2C(=O)C=C(Nc3cccc(C4(NCCc5ccc(C(F)(F)F)c(Cl)c5)CCCC4)c3)C2=O)C(=O)N1 (centres unmarked)	ZBTB11/CRBN	protein degradation, degrader, HiBiT luminescence	MOLT-4	–	–	Dmax	60%
Nc1ncnc2c1ncn2[C@@H]1O[C@H](COP(=O)(O)OP(=O)(O)OP(=O)(O)O)[C@@H](O)[C@H]1O	P2X purinoceptor 7 (P2rx7, Rattus norvegicus, UniProt Q64663)	ion current, agonist, two-electrode voltage clamp	Xenopus laevis oocytes	100 µM	baseline: 100 µM compound response	normalized current	1
CCCCC/C=C\C\C=C/C=C/C=C/[C@@H](SC[C@H](N)C(=O)NCC(=O)O)[C@@H](O)CCCC(=O)O	Cysteinyl leukotriene receptor 2 (CYSLTR2, Homo sapiens, UniProt Q9NS75)	GloSensor	HEK293T	10 nM, after washout	–	cAMP increase persistence	≥ 360 min
CN1CCC[C@H]1c1cccnc1	Chrnd/Chrna1/Chrne (Mus musculus, UniProt P02716+P04756+P20782, G173R)	–	–	–	–	koff	1360 s⁻¹
CC(C)OCCn1c(=S)[nH]c(=O)c2[nH]ccc21	Myeloperoxidase (MPO, Homo sapiens, UniProt P05164)	H2O2 consumption, inhibitor, H2O2 electrode	–	0.68 µM, 0.2 s	–	H2O2 concentration	0.244 µM
CC(NC(=O)CCCc1ccc2ccc3cccc4ccc1c2c34)C(=O)NO (centres unmarked)	Histone deacetylase 8 (HDAC8, Homo sapiens, UniProt Q9BY41)	ITC	Tris-HCl buffer	concentration not given, 298 K	–	binding stoichiometry	0.9
CC[C@@H]1[C@H](F)C(=O)N[C@@H]1COc1nccc2cc(C(N)=O)c(OC)cc12	Interleukin-1 receptor-associated kinase 3 (IRAK3, Homo sapiens, UniProt Q9Y616)	ATP-site probe binding, inhibitor, ActivX ATP probe profiling	THP-1 cell lysate	0.2 mM, kinase domain site	–	inhibition	34%
CCS(=O)(=O)N1CC(CC#N)(n2cc(-c3ncnc4[nH]ccc34)cn2)C1	Alpha-1-acid glycoprotein 1 (ORM1, Homo sapiens, UniProt P02763)	–	–	with: Fe3+	–	change in binding constant	-15.2%
Cc1nn(CCc2ccccc2)c2ncc(C(=O)NCc3ccccc3F)c(Cl)c12	Prolyl endopeptidase (PREP, Homo sapiens, UniProt P48147)	intact protein MS	–	50 µM, 4 h, 37 °C	–	protein adduct formation	20%
Nc1ncnc2c1ncn2[C@@H]1O[C@H](C[C@@H](N)CC[C@H](N)C(=O)O)[C@@H](O)[C@H]1O	DNA adenine methyltransferase CamA (Clostridioides difficile, UniProt Q183J3)	ITC	–	concentration not given, with: 50 µM DNA	baseline: without DNA	cofactor binding increase	~2
CCC(C)(NCCc1ccc(C(F)(F)F)cc1)c1cccc(NC2=CC(=O)N(C3CCC(=O)NC3=O)C2=O)c1 (centres unmarked)	ZBTB11/CRBN	protein degradation, degrader, HiBiT luminescence	MOLT-4	–	–	Dmax	47%
N=c1n(CCN2CCCCC2)c2ccccc2n1CC(O)c1cccc(Br)c1 (centres unmarked)	CatSper channel complex (Homo sapiens, UniProt Q7RTX7+Q86XQ3+Q8NEC5+Q96P56)	ion current, whole-cell patch clamp	human sperm	10 µM, at -80 mV	–	inward current density	-15 ± 3 pA/pF
CCCCCCCCC(=O)c1cc(O)c(O)c(O)c1	Nuclear receptor subfamily 1 group D member 1 (NR1D1, Homo sapiens, UniProt P20393)	reporter gene, Gal4 hybrid reporter	–	10 µM	baseline: vehicle	activation	2.78 fold

Some of these lines once more:
Compound	target	assay	system	conditions	how to read	endpoint	value
NCCCC[C@H](N)C(=O)Nc1ccc2ccccc2c1	rat neuron-specific aminopeptidase	substrate	–	MW 110 kDa	–	kcat	30.8 s⁻¹
C=CC(=O)N1CCC(COCC(=O)N2CCN(c3nc(-c4cnc(N)nc4C(F)F)nc(N4CCOC[C@@H]4C)n3)CC2)CC1	Mast/stem cell growth factor receptor Kit (KIT, Homo sapiens, UniProt P10721, T670I/V559D)	KINOMEscan	–	1 µM	–	remaining binding	95%
